# Experimental data gathered from unrelated publications.
# Compare with care: the assays were run in different laboratories. Numbers after ± are the reported error.
SMILES,tested on,test,test system,setting,quantity,result
CNCc1ccc2c(c1)N(C(=O)OCc1c(F)c(F)c(F)c(F)c1F)[C@H](CNC(=N)N)[C@H]2NC(=O)C(=O)Nc1ccc(Cl)c(F)c1,Human immunodeficiency virus 1,"viral infection, Env pseudovirus","TZM-bl, 231965.c01 clade D",,IC50,0.502 µM
CC(=O)NCCN(CC(=O)NCCN(CC(=O)NCCN(CC(=O)NCCC(N)=O)C(=O)C[C@@H](N)Cc1ccccc1)C(=O)C[C@@H](N)CCCNC(=N)N)C(=O)C[C@@H](N)Cc1ccccc1,HIV-1 TAR RNA,,,"concentration not given, 25 °C",binding enthalpy ΔH°,-7.31 ± 0.263 kcal/mol
CNCc1ccc2c(c1)C[C@H](CNC(=N)N)[C@H]2NC(=O)C(=O)Nc1ccc(Cl)c(F)c1,"env (Human immunodeficiency virus 1, UniProt Q27Q69)","pseudovirus infection, luciferase reporter",TZM-bl,48 h,IC50,1.74 µM
CC(=O)NCCN(CCC(=O)NCCN(CCC(=O)NCCN(CCC(=O)NCCC(N)=O)C(=O)[C@@H](N)CCCNC(=N)N)C(=O)[C@@H](N)CCCCN)C(=O)[C@@H](N)Cc1ccccc1,HIV-1 TAR RNA,,,"concentration not given, 25 °C",binding enthalpy ΔH°,-15.8 ± 0.263 kcal/mol
C[C@H](Nc1ncnc(N)c1C#N)c1c(-c2ccccc2)[nH]c2c(Cl)cccc2c1=O,B-cell lymphoma cell lines,"cell proliferation, CellTiter-Glo",,"72 h, median over 23 cell lines",IC50,7.38 µM
F[P-](F)(F)(F)(F)F.OC(Cn1cncn1)(Cn1cc(-[c-]2cccc2)nn1)c1ccc(F)cc1F.[Co+3].c1cc[cH-]c1 (racemic),Trichuris muris,Worminator,adult males and females,"100 µM, day 3",motility inhibition,52%

# Repeated from above:
SMILES,tested on,test,test system,setting,quantity,result
CC(=O)NCCN(CC(=O)NCCN(CC(=O)NCCN(CC(=O)NCCC(N)=O)C(=O)C[C@@H](N)Cc1ccccc1)C(=O)C[C@@H](N)CCCNC(=N)N)C(=O)C[C@@H](N)Cc1ccccc1,HIV-1 TAR RNA,,,"concentration not given, 25 °C",binding enthalpy ΔH°,-7.31 ± 0.263 kcal/mol
